Published values pooled from the literature.
A part holds a random share of what one study measured. Changes are numbered by the printed parent chain.

Series 1
Target: Histone acetyltransferase KAT6A, winged helix 1, GST fusion (KAT6A, Homo sapiens, UniProt Q92794, residues 1-85)
Method: protein binding microarray
Form: double-stranded DNA, one strand shown
Sample: in vitro
Tested at: not given
Setting: 8-mer, flanks averaged, mean of 2 arrays, mostly near background
Baseline: not given
Reading: higher = stronger binding
Residues (chain): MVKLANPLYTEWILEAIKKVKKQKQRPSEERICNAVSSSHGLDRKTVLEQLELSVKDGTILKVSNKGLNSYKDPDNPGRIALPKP
| Sequence | E-score |
| --- | --- |
| CATGCTAG | -0.182 |
| CGCCTTAA | 0.147 |
| GTATATCA | 0.0345 |
| CTTTGTGA | -0.174 |
| AGACTGTG | -0.206 |
| TAGTTATA | -0.0805 |
| AGATTGAA | -0.071 |
| GCTATTAA | -0.0567 |
| CAGGGCGC | 0.299 |
| GTAGTGAA | -0.0875 |
| AGGGGATG | -0.298 |
| AGGGACAA | -0.06 |
| GCCAAGCC | 0.0606 |
| ACACGCAC | 0.0585 |
| ATCACTGA | -0.0928 |
| ACCCCAAC | -0.255 |
| CGCTTCCG | 0.375 |
| CACGGAAG | 0.219 |
| AGCCGCAC | 0.21 |
| AGTCCGTA | 0.207 |
| GCAAGGCA | -0.174 |
| CCGGTACC | 0.29 |
| AGTACCAC | -0.18 |
| AAACGGCG | 0.32 |
| CGAGACTC | -0.0709 |

Series 2
Target: TAR DNA-binding protein 43, full length, His tag (TARDBP, Homo sapiens, UniProt Q13148, residues 1-414)
Method: RNA Bind-n-Seq
Form: RNA
Sample: in vitro
Tested at: 20 nM
Setting: 6-mer, flanks averaged, single round
Together with: 150 mM KCl
Baseline: input library
Reading: higher = stronger binding
| Sequence | 6-mer enrichment (R) |
| --- | --- |
| CGCAAA | 0.693 |
| UUACGG | 0.884 |
| CGAAGU | 0.755 |
| CAACCU | 0.588 |
| ACACGA | 0.68 |
| GAAUGG | 1.94 |
| GUGAUC | 0.779 |
| ACCACU | 0.623 |
| CUUCUA | 0.542 |
| ACCGCU | 0.634 |
| CUUGAG | 0.86 |
| UCUGUC | 0.584 |
| UUCUCA | 0.534 |
| GCCUUA | 0.684 |
| UUCAUU | 0.558 |
| AGUCGA | 0.787 |

Series 3
Target: Sal-like protein 4, full length isoform A (SALL4, Homo sapiens, UniProt Q9UJQ4, residues 1-1053)
Sequence of UniProt Q9UJQ4 (whole entry, looked up): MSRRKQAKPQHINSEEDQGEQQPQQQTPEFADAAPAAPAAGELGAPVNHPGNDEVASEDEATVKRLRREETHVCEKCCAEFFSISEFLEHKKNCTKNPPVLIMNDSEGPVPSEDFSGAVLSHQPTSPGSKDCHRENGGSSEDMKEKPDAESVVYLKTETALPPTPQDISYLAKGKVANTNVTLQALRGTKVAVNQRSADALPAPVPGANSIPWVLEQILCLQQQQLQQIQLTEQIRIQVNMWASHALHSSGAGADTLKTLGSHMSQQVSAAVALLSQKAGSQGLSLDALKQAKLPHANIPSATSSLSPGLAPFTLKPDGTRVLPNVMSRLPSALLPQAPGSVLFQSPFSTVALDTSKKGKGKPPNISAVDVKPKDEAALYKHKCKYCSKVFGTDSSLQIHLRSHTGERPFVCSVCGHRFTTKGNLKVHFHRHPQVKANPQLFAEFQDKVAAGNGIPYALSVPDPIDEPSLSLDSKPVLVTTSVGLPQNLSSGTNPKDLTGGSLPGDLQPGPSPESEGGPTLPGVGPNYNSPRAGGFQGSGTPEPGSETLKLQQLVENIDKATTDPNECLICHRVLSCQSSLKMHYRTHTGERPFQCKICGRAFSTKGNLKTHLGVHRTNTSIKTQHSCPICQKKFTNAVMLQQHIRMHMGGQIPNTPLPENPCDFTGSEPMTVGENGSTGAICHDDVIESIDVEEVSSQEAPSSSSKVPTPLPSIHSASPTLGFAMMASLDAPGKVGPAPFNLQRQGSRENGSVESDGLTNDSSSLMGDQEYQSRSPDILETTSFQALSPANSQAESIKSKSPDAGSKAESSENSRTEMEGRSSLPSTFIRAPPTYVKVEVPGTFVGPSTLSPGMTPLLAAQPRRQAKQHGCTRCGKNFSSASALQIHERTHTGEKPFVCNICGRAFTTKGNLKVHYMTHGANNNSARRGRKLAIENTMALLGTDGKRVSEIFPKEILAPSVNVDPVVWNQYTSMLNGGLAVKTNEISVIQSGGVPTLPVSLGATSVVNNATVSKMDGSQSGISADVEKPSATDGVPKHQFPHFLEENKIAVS
Method: universal PBM
Form: double-stranded DNA, one strand shown
Sample: in vitro
Tested at: 600 nM
Setting: 8-mer, flanks averaged, mean of replicates
Reading: higher = stronger binding
| Sequence | E-score |
| --- | --- |
| AAAGACAT | 0.0863 |
| GCCCACTA | -0.155 |
| CACAGAGC | -0.158 |
| GGTGCAAC | -0.31 |
| ACCTCTTG | -0.248 |
| GTCTTACA | 0.132 |
| CGAGTCCG | -0.0823 |
| CGTTTAAC | 0.194 |
| ACGAGGCT | 0.00357 |
| CTACATTC | 0.143 |
| GTCCCGAC | -0.248 |
| CAATCTGG | -0.0263 |
| AATGTGAA | 0.323 |
| AGGGGACC | -0.408 |
| GGTTCCAC | -0.185 |
| CGGCCTGC | -0.372 |
| TAGTACGA | 0.149 |
| GGTGACAA | -0.0022 |
| ACAGGCCC | -0.361 |
| CATAAGTA | 0.269 |

Series 4
Target: RING finger protein unkempt homolog, zinc fingers 1-6, SBP tag (UNK, Homo sapiens, UniProt Q9C0B0, residues 30-357)
Sequence of UniProt Q9C0B0 (30-357, looked up): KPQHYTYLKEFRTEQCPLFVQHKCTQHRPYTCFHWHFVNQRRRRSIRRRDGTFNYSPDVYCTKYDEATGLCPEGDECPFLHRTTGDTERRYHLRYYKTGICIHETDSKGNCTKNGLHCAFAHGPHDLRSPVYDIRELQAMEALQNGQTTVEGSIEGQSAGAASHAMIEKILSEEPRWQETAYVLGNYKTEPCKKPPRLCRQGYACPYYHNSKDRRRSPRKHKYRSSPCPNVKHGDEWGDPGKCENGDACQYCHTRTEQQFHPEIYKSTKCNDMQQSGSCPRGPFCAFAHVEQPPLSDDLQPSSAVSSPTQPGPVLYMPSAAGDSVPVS
Method: RNA Bind-n-Seq
Form: RNA
Sample: in vitro
Tested at: 100 nM
Setting: RNA with constant flanks, vertebrate orthologous sites, ends assumed
Baseline: input RNA pool
Reading: higher = stronger binding
| Sequence | bound/input enrichment [ratio] |
| --- | --- |
| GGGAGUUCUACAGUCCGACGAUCAACAACUCAAGGAUUCAGGACUGGUUUUACAAAUAUACCAAGCAAAUAUGGAACUAACAGUAGAGGGCAAUCCAGACCAUAAGACACUGCCAUUUGAUCUUAUUUAUUCUUAUUAAGGGUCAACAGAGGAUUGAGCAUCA | 0.818 |
| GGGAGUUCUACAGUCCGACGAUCCCUGUGAGGGUCUACUGACCACUCACCAUUACGUCUGGUAUCUGUAAACACUCUUGUUCCUAGUCUUUUUCUUGUAUAAUUGAUGUCCUUUGAAAUCGUUAAUGUAUAACAGGGCUUAUGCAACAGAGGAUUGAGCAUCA | 2.59 |
| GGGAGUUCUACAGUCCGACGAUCAGGAAAUGCUCGCUGCAAACCCUCAGGAUCGUCCAGAUGCUUUUGAACUAGAACUCAGAUUAGUACAAAUUGCAUUUAAAGAUAGCAGCUGGGAAACGUGACAUAUAUAUUGUUUGCAAACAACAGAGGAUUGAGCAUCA | 0.818 |
| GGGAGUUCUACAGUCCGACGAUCCUGUUGUGUGAAAUAUGUCUACCAAGAGAAGUAUCACACCAUAAACAUUGUCAAAUAAUUUAGCUACAAUCUUCUUAGAUACCAAAUUAUAUGUCAAGCAUUUAAAGUGAGUUUGAGAUGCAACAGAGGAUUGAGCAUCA | 0.42 |
| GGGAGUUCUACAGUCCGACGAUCUCCUCAACUUGUUCUAGCUUGUGAUCCUUCAAAGUUGGGUCAGGCAUUAAUGCUAGGUACUAGAAAUUUUCAUUUCUCUAUUGCCAUUGAUCAGAGAGACAGGCAUGAAAAACAGGAAUACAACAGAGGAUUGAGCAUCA | 0.241 |
| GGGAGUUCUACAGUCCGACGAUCGGAAAGCUACAGACCAGACUCUGAAAGUAGGAGCACAGGGUCCUGGUUGUCAUCAUCUUUGAGGAACAGAUGUACACCACUCUUCUCCAGAAGACGGAGAGAAGGAAGAGAUGAGUCUGCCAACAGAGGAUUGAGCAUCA | 0.41 |
| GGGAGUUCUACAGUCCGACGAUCGUUAGGUCAUGACCCUUAUAGGCUAGGUCAUGAUGCUUAUAGAUUAGGGCAAGACCCUUAUAGAUUAGGCCAUGAUCCCUACAGACUAACUCCUGAUCCCUAUAGGAUGUCACCUAGACCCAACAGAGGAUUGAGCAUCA | 0.544 |
| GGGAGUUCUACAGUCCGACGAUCCAUGUCCUGGUUACUGUGAUAGUUAAAAUAUCCACAGUACUCAUUUUUUCCAAAUGAUUCUAGUAAUUGCCUAGAAAUAUCUUUCUCUUACCUGUUAUUUAUCAAUUUUUCCCAGUAUUUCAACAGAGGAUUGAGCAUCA | 1.43 |
| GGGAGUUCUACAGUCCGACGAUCGUUGUGACCCUUUUAACAUUCACAAAAAGUUAGCAAAAAAAAAUUUGCAUGUGAUUGACUUAGAUGAUGCCACUUUUCUGAGCGCAAAAUUUGGAAGGCAGCUAGUUCCUGGUUGGAAGCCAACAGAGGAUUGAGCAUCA | 0.971 |
| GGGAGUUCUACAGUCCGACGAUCCUCCUCUUAAUCCCAUCUCAUCUGUUUCAUAGUGCUGAAGCUCUGUCUUCAGCCUUAUUUUUAGCGAACUUAUUCUAAUUAUAGAGAAACUUCCAGUGUGGAUACUGUGAGCUAUAUGGACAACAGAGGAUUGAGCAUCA | 1.77 |
| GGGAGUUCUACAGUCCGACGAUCGAAAGUCCCCAUUGUCACUGAGAACCACCACAUCUGACUUUUACAUUUGGUCUCAGAAUUUAAGUUCCUGCCCUGUUGGGUUUUUUUUUUUUUUUAAACAGUUUUCAAAAGUUCUUAAAGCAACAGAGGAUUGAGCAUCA | 0.744 |

Series 5
Target: NFE2L3, bZIP domain (human)
Method: DHFR protein complementation
Sample: yeast
Setting: single substitutions, most at no-binding floor
Baseline: wild-type JUN-FOS pair
Reading: higher = stronger binding
Starting sequence: JUN, bZIP domain (human); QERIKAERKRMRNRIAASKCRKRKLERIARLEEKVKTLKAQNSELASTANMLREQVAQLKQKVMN; partner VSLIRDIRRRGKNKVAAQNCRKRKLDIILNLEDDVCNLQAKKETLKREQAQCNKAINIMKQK
| Variant | binding fitness [natural log] |
| --- | --- |
| K34S | -1.47 |
| K34Q | -1.49 |
| K39D | -1.5 |
| K36G | -1.44 |
| L52F | -1.47 |
| T48P | -1.55 |
| L38N | -1.53 |
| K39V | -1.51 |
| E32V | -1.39 |
| S47K | -1.13 |
| S43G | -1.43 |
| L59P | -1.3 |
| K34V | -1.58 |
| I28R | -1.58 |
| K36F | -1.51 |
| T48Q | -1.49 |
| A40E | -1.55 |
| R30W | -1.56 |
| K39W | -1.52 |
| Q41N | -1.52 |
| A40F | -1.3 |

Series 6
Target: RNA binding protein fox-1 homolog 2, RRM domain, GST-SBP tag (RBFOX2, Homo sapiens, UniProt O43251-10, residues 100-194)
Method: RNA Bind-n-Seq
Form: RNA
Sample: in vitro
Tested at: 365 nM
Setting: natural RNA segment, single round, ends assumed
Baseline: no-protein control
Reading: higher = stronger binding
Residues (chain): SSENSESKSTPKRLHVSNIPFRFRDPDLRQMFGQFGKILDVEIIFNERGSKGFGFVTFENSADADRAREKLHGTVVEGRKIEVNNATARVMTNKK
| Sequence | RBNS enrichment (R) |
| --- | --- |
| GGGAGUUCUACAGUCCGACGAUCUUCUGAGAGUGUGACUUUUCAAGGCGAAUGAUGGGGAAGGGUUCCCCAGUCCCCACAGUGGCCCCACCUCUGGGCCCUGCACCAGAGCCCUUCUGUGUCACGGCGGGCUGUGGAAUUCUCGGGUGCCAA | 0.343 |
| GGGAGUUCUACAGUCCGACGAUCGAUUUGAGCCCUACUAAGUGACUGACCACUGUUUAGAGUGUCUGGUAUCUGAUGUUCAUUUAUUCCCAUGUUCUUGUGUGUCACAGUUCAGCCAGUUUUGGUUUAUGCCUUGGAAUUCUCGGGUGCCAA | 0.556 |
| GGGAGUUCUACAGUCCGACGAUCAAGCAGGGAUACCCUCUUCUUUAGGACUAGAGCUGCCAUUCUUUUCAUCUUUAGCACAAGGAAGGUAUUUAAGUGAGCCAGAGACAAACAGAGCCAUUUUAGUCUUCAUAUGGAAUUCUCGGGUGCCAA | 0.558 |
| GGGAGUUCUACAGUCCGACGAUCCUUGACCCUGCUCAACCUUCUCCCUCUAGCACAAGGGAACAUUUCUAGAAAAGUAAAAUCUACUUUUGUAUCAGUGUGAAUAAAGUUAGUGUGUUGUCUGUGCAGCUGCAUGGAAUUCUCGGGUGCCAA | 0.485 |
| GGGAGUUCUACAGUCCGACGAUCUCAUUAACAGCCUGGGUGAACAUGGCUGGGAGUAAAGGGCUUGCUCUCCUGCAUGUUGACAUGACGGCCCUUUCCAAGGGUGAUGGAGGCUUUCCCAAGCUAAGGGCCUAUGGAAUUCUCGGGUGCCAA | 6.42 |
| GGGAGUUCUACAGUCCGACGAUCUUUUCUCUUUAGGUGACUGUUUAAGAAAUUUGUGUGCAUAGUUACUCAGUUUUUAUGAACUGUUGUAUCCUGUUAAUGCAUAUUGCUCUGUGACUCCAGUAUAUCUUACCUGGAAUUCUCGGGUGCCAA | 0.351 |
| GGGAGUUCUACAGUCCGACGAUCUCUAUAAGGAUGAACAAAAGGUCUUUGAAAGUUUAUGCUUAAAAUUUAGGUGUGGGCUGAUUGGACUCCAACAUCUUUUGUACUCUUUUCAUGCUUUAUGUUAUGUAGAAUGGAAUUCUCGGGUGCCAA | 0.984 |
| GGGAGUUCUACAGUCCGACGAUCCUGCAGUGGAAUGGAGAGGAAAAUACUUCUAGGCAAGCAGCUAGACUGGUGAAUUGGGGGAAAUAGAAGGAACUAGUAACUGAGACUCCUCCAGCCUCCUCCCUAUUGGAUGGAAUUCUCGGGUGCCAA | 0.487 |
| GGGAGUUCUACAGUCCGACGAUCCUGAGUUUUGCAAGCGCUCAGGGUUUUCAUACUUAUUUCAUAUAACACCCAUUUCUAUUCAUUUCUGUAUAAAGAACAGUACAGAACAGUAUCGGGAUCUUUGUUGGUUUUGGAAUUCUCGGGUGCCAA | 5.61 |
| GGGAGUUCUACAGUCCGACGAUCAAGGACAACUUCAGGAGGGUGCAGUGAGGGCAGCCGUGUGGAGUCUUGCUUUGCAUUUGAUAGUGUCAAAUAAUUGCUUGUACCCUAGGUAAUGACCAGUGGAUUUUUGUUGGAAUUCUCGGGUGCCAA | 0.99 |
| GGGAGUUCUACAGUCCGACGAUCUUCAAGGAAAGUAUAGCGUCUAUGGAGUUCAGAGGGCACGUGUUUGGGGGAAAAUAUAUAUGACAUGAAGAAGAAGAUGAAGAAAAAUGAGAAAAAAACACACAAAAGGCUGGAAUUCUCGGGUGCCAA | 2 |
| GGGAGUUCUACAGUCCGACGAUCUUUUGCUUCUUGGUCAAGAAAGGAGGGGAGAACCCAGCGCACCCCUCCCCCCCUUUUUUUAAACGCGUGAUGAAGACAGAAGGCUCCGGGGUGACGAAUUUGGCCGAUGGUGGAAUUCUCGGGUGCCAA | 0.843 |
